Measured values from different studies.
Each numbered part is a random draw from the data of one study; scales do not carry over between parts. Positions count from the first letter of the parent shown.

Study 1
Target: Ras GTPase-activating protein-binding protein 1, C-terminal RGG region (G3BP1, Homo sapiens, UniProt Q13283)
Chain of UniProt Q13283 (whole entry, looked up): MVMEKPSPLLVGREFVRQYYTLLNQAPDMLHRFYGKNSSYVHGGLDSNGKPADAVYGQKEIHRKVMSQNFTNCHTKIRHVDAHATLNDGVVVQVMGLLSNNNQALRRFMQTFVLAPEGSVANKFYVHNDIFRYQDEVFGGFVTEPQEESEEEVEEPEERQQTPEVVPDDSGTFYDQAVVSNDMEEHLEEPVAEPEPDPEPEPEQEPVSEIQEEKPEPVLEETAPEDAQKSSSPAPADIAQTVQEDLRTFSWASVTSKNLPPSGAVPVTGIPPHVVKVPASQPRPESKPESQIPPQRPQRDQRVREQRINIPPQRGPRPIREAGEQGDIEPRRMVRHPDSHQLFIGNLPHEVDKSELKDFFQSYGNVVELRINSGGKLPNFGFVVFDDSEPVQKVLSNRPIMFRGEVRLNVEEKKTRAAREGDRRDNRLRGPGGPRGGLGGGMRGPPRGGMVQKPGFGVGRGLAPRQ
Method: RNA Bind-n-Seq
Form: RNA
Matrix: in vitro
Concentration: 1 µM
Notes: whole 134-nt RNA, ends assumed
Added: 150 mM KCl
Baseline: input library
Direction: higher = stronger binding
| Sequence | log2 enrichment |
| --- | --- |
| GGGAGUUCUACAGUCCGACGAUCGUCCUGUGCUACACAUCGUAUGUACCGAAUCGGGUUUUUGGUUUUUGGGGUUUUUGGGGAAAGUAUUAUGUUACGCCGUUCGGAUCUGCAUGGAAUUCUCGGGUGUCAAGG | -0.792 |
| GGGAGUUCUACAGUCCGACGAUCGCAGGAAGUAAAAACAAAUGGAAAUGCUUCGUAUAGUGGCAGGGGUGGGGGUUGCUAAGGAAAGGGUGGGAUGGGAGUGGGUAAAGAGUUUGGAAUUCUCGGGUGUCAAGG | 1.61 |
| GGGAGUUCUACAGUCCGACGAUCUCAAGUCCUGUGCUACACAUCGUAUGUACCGAAUCGGUGGUUUUUUUGGUUUGGAAAGUAUUAUGUUACGCCGUUCGGAUCUGCACUUCCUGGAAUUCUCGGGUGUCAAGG | -1.27 |
| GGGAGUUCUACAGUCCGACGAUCUCCUGUGCUACACAUCGUAUGUACCGAAUCGGGGAGGGGUUUUUUUGGGGUUUUUGGGGAAAGUAUUAUGUUACGCCGUUCGGAUCUGCAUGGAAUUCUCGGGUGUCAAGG | 1.36 |
| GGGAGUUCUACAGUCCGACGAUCCCUGUGCUACACAUCGUAUGUACCGAAUCGGGGUUUUUUGGUUUUUUGGGGUUUUUUGGGAAAGUAUUAUGUUACGCCGUUCGGAUCUGCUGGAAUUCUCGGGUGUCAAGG | -1.56 |
| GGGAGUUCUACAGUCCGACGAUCUGGCCCUGGUGGCAUGCGGGGAGGAAGAGGUGGCCUCAUGGAUCGUGGUGGUCCCGGUGGAAUGUUCAGAGGUGGCAGUGGUGGAGACAGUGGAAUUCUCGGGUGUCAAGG | 3.34 |
| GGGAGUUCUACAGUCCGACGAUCUCCUGUGCUACACAUCGUAUGUACCGAAUCGGGUUUUUUUGGUUUUUUUGGUUUUUUUGGAAAGUAUUAUGUUACGCCGUUCGGAUCUGCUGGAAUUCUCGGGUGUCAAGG | -0.458 |
| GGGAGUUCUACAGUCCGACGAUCCUCAAGUCCUGUGCUACACAUCGUAUGUACCGAAUCGGCCGGGCCGGCCGGGGAAAGUAUUAUGUUACGCCGUUCGGAUCUGCACUUCCAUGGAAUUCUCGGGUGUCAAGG | -1.1 |
| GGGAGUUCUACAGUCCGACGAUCCCUCAAGUCCUGUGCUACACAUCGUAUGUACCGAAUCGGGCGGGGCGGCGGGGAAAGUAUUAUGUUACGCCGUUCGGAUCUGCACUUCCAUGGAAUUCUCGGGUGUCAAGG | 0.224 |
| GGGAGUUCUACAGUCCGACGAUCAAGUCCUGUGCUACACAUCGUAUGUACCGAAUCGGUUUUGGGGUUUUGGGUUUUGGGAAAGUAUUAUGUUACGCCGUUCGGAUCUGCACUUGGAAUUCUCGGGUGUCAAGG | -0.544 |

Study 2
Target: ABI1, truncated, D143A, DHFR fusion (Arabidopsis thaliana)
Method: DHFR PCA, deep sequencing
Matrix: yeast
Notes: methotrexate growth selection, single substitutions
Added: (+)-ABA 2500 µM
Baseline: wild-type fitted maximum
Direction: higher = stronger binding
Starting sequence: PYL1, truncated, DHFR fusion (Arabidopsis thaliana); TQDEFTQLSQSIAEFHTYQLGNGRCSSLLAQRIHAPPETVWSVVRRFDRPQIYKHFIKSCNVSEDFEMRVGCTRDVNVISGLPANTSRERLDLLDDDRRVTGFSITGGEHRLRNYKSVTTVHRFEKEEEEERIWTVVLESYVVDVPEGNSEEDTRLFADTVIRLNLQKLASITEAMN; partner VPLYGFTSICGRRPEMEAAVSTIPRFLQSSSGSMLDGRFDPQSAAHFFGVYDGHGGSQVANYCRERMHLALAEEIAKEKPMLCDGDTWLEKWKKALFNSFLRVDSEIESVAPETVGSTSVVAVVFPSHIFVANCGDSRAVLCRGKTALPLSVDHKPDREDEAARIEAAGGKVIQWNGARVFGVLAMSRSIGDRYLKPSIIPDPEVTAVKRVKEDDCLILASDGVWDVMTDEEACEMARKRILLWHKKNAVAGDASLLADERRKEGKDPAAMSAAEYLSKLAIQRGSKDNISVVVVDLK
| Variant | relative binding score |
| --- | --- |
| E174D | 87.7% |
| D95G | 67.9% |
| L156K | 91% |
| E4Y | 102% |
| S63A | 97.5% |
| I33G | -15.2% |
| V40F | -9% |
| S104R | 91.6% |
| R123K | 111% |
| E38S | 94.9% |
| F15P | 41.2% |
| D48C | 79.7% |
| R88N | 100% |

Study 3
Target: RING finger protein unkempt homolog, zinc fingers 1-6, SBP tag (UNK, Homo sapiens, UniProt Q9C0B0, residues 30-357)
Chain of UniProt Q9C0B0 (30-357, looked up): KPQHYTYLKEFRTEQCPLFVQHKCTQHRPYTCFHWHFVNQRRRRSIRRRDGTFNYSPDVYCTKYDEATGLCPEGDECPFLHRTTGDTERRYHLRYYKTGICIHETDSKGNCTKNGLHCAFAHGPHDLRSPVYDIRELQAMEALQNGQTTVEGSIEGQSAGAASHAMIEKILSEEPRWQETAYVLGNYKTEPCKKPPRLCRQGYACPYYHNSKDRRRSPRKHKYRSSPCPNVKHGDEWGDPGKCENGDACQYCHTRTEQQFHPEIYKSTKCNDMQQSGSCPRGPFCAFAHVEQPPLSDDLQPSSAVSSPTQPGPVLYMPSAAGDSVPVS
Method: RNA Bind-n-Seq
Form: RNA
Matrix: in vitro
Concentration: 100 nM
Notes: RNA with constant flanks, vertebrate orthologous sites, ends assumed
Baseline: input RNA pool
Direction: higher = stronger binding
| Sequence | bound/input enrichment |
| --- | --- |
| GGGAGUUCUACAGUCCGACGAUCCAAUUCCAUGGUCGAAGGCUCUGAGCUCAAGAAGGUCCGCUCCAAUUCUAGAAUUUACCACCGGUAUUUUCUCUUGGACGCCGACAUGCAGUCCCUGCGAUGGGAACCCUCCAAGAAGGACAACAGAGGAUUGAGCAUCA | 0.115 ratio |
| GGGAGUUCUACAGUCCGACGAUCUUGGAACCAGCUCUCCAAAUAGGAAUAGUAGUAAAAAAAGUAAACAAAAUGAUAAUUGUACAGAAAAAACAGAAGCGAAAUCAUGUAAAGUAAAUGCUGCUGGUGUUCUAGGCCCUAAAGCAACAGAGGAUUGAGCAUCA | 1.52 ratio |
| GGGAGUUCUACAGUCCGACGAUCCUGAAGCUUUGUGUUUGGCUGCACCUGCAUAAACUGCUACAAAUAGAAUAAAGAAUCUCAUAGCCUGUAUCUAUCAUUUAGAUGCAUGGAAAAACGGGCUUUGCACACAGUGGGUUUGGACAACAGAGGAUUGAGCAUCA | 1.43 ratio |
| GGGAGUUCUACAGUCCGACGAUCGUAUCUUGGUUUGGGGUAGAGGGGAGGGAGGGGCAGGGCUGUGGAAUCUCUCCGGUAUAUGGGUAGAUAAGUGGACCUAUGUGAACCUCUGGGGCAUCUGUUUUGGGGGGUGAGUAUGGGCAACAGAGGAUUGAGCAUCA | 0.986 ratio |
| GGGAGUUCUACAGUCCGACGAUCAGGAAAUGCUGGCUGCAAACCCUCAGGAUCGUCCAGAUGCUUUUGAACUAGAACUCAGAUUAGUACAAAUUGCAUUUAAAGAUAGCAGCUGGGAAACGUGACACAUACAUUAUUUGCAAACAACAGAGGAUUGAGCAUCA | 0.83 ratio |
| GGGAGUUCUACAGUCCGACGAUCUGCUCUCUUUCUAUAGGUAUCAUUGCCCAAUGCCCAAGAUCUUUUAUGUUCAGUUAACUGUAGGAAAUAAUGAAUUCUUUGGUGAAGGGAAGACUCGACAAGCUGCCAGACACAAUGCUGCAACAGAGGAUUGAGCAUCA | 0.689 ratio |
| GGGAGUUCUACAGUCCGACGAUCUUUCUUUAUUUUUAUCUUCCCUUUAUUUUCUUUCUUUCUUUUUCUUUCUUUCUUUUUUUUCUAAUGUUGUUACCCACGCCAUUUUACGUCUCCUUCACUGAAGGGCUAGAGUUUUAACUUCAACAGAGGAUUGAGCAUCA | 9.27 ratio |
| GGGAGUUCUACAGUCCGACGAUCUGCACUAGUGCUCUUCUGUGGAAGAGAUGAAUUGUGGAAAACUGUCUCCUUUUUAUAGAUUACUUUGUUUCUAAAUUAUGACCAAAAAUAUUUUGCUAUUUCUUUCUUUAUAUAUGGAAUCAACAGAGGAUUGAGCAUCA | 1.13 ratio |
| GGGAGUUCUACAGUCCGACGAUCAAGUCCUCAACUUGUUCUAGCUUGCCCUUCAAAGUUGAGCCAGGCAUUAAUGCUAGGUACUAGAGGUUCUCGUUUCUUUAUUGCUAUUGGUCAGAGAGACAGAUGUUAAAAACAGGAAUACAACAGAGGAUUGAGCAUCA | 0.332 ratio |
| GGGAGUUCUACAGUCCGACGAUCUUGGAUGAGGGUAGAGGGGAGGGAGGGACAGGACAGUGUGGAAUCCCUAGGGUAUUAUGGGUAGGUAGGGGGAACAGUUCUAAGUGGGCCUUUGUUAAAAACCUCUGGAGAUGUUUGUUCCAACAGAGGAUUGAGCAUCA | 0.906 ratio |
| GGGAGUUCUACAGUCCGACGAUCGCCUCCAACAGGCACAUUCAGGGAGAGAUAGGCUUCAGGGAACAUAAAUUUAUUUAAUAGUAGUGAUCAUGAAGUAUAAAUUUGAUAUAAUUGAAUAAUUUGUGAGGGGUGAUGAUAAAUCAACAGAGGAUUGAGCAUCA | 0.958 ratio |

Study 4
Target: CCND3, cyclin fold, Cln2 fusion (human)
Method: yeast growth competition, sequencing
Matrix: yeast
Notes: weak parent motif
Baseline: not given
Direction: higher = stronger binding
Starting sequence: RBL1 docking peptide (human); GSAKRRLFGEDPP
| Variant | normalised enrichment score |
| --- | --- |
| GSAMRRLFGEDPP [K4M] | 0.13 |
| GSANRRLFGEDPP [K4N] | 0.153 |
| GSAKRRLFIEDPP [G9I] | 0.142 |
| GSAKRRLFGGDPP [E10G] | 0.0411 |
| GSAKRRLFGEDPE [P13E] | 0.024 |
| GSAVRRLFGEDPP [K4V] | 0.171 |
| GSAKRRLFGEDPM [P13M] | 0.0428 |
| GSAKRRLFGEDGP [P12G] | 0.22 |
| QSAKRRLFGEDPP [G1Q] | 0.121 |
| GSAKRRLFQEDPP [G9Q] | 0.172 |
| GSAKRRLFGADPP [E10A] | 0.102 |
| GSAKRRLFNEDPP [G9N] | 0.1 |
| GSAKRRLMGEDPP [F8M] | 0.105 |
| TSAKRRLFGEDPP [G1T] | 0.138 |
| GSAKRRLQGEDPP [F8Q] | 0.113 |
| GSAPRRLFGEDPP [K4P] | 0.0551 |
| GSAKRRPFGEDPP [L7P] | 0.138 |
| GSPKRRLFGEDPP [A3P] | 0.107 |
| GSAKRRGFGEDPP [L7G] | 0.192 |
| GSAKRRLFGEDQP [P12Q] | 0.137 |
| GSAFRRLFGEDPP [K4F] | 0.132 |
| GSAKRRTFGEDPP [L7T] | 0.0506 |
| GSNKRRLFGEDPP [A3N] | 0.0693 |
| ASAKRRLFGEDPP [G1A] | 0.188 |
| LSAKRRLFGEDPP [G1L] | 0.18 |

A few entries again (study 2):
| Variant | relative binding score |
| --- | --- |
| D95G | 67.9% |
| V40F | -9% |
| I33G | -15.2% |
| R88N | 100% |
